Results from different studies.
Every numbered part comes from another study and shows a few of its results, in no order. ± gives the spread as reported.
Sequence of UniProt P25090 (whole entry, looked up): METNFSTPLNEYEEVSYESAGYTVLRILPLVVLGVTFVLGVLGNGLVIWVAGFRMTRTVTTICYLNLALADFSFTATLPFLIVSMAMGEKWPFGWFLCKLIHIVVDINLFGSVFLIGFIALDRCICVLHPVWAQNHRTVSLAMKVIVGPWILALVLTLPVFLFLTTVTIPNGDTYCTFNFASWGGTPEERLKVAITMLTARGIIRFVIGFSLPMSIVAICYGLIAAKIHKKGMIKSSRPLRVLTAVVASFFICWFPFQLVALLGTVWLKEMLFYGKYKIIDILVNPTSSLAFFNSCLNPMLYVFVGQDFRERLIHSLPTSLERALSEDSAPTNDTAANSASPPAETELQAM

Series 1
Species: Kunming mice both sexes
Route: intraperitoneal
Time: 7 days
`CCC1NC2CC3(C(=O)N(OC)c4ccccc43)C3OCC2C1C3O` (stereo not drawn) gave an LD50 of 0.17 mg/kg.
`CCC1=NC2CC3(C(=O)N(OC)c4ccccc43)C3OCC2C1C3O` (stereo not drawn) gave an LD50 of 0.46 mg/kg.
`CON1C(=O)C2(CC3NC(=O)C4CC2OCC34)c2ccccc21` (stereo not drawn) has an LD50 of over 30 mg/kg.
`CCC1=NC2CC3(C(=O)N(OC)c4cc(OC)ccc43)C3OCC2C1C3O` (stereo not drawn) has an LD50 of 0.41 mg/kg.
With `COc1ccc2c(c1)N(OC)C(=O)C21CC2N=C(C(C)=O)C3CC1OCC23` (stereo not drawn) the LD50 was over 30 mg/kg.
The LD50 of `CCC1(CO)NC2CC3(C(=O)N(OC)c4ccccc43)C3CC1C2CO3` (stereo not drawn) is reported as 0.54 mg/kg.

Other studies, line by line
The Vd of `CC[C@H](C)[C@@H]([C@@H](CC(=O)N1CCC[C@H]1[C@H](OC)[C@@H](C)C(=O)N[C@H](C)[C@@H](O)c1ccccc1)OC)N(C)C(=O)[C@@H](NC(=O)[C@H](C(C)C)N(C)C(=O)OCc1ccc(NC(=O)[C@H](CCCNC(N)=O)NC(=O)[C@@H](NC(=O)CCCC(=O)NCCC(=O)N(C)CC(=O)N(C)CC(=O)N(C)CC(=O)N(C)CC(=O)N(C)CC(=O)N(C)CC(=O)N(C)CC(=O)N(C)CC(=O)N(C)CC(=O)N(C)CC(=O)N[C@H]2CSCCC(=O)N3CN4CN(C3)C(=O)CCSC[C@H](NC(=O)[C@@H](CC(=O)O)NC(=O)[C@H](Cc3cccc5ccccc35)NC(=O)[C@@H]3CCCN3C2=O)C(=O)N[C@@H](CCSC)C(=O)N[C@@H](CCCCNC(=N)N)C(=O)N[C@@H](CC(=O)O)C(=O)N[C@@H](Cc2c[nH]c3ccccc23)C(=O)N[C@@H](CO)C(=O)N[C@@H]([C@@H](C)O)C(=O)N2CCC[C@H]2C(=O)N2C[C@H](O)C[C@H]2C(=O)N[C@@H](Cc2c[nH]c3ccccc23)C(=O)N[C@H](C(N)=O)CSCCC4=O)C(C)C)cc1)C(C)C` is reported as 0.25 L/kg (mouse, plasma; intravenous, 3 mg/kg).
For `CC[C@H](C)[C@H](NC(=O)[C@H](Cc1c[nH]c2ccccc12)NC(=O)[C@H](CCCCN)NC(=O)[C@@H](NC(=O)[C@H](CC(C)C)NC(=O)[C@H](CC(=O)O)NC(=O)[C@H](CO)NC(=O)[C@@H](NC(=O)[C@@H](NC(=O)[C@H](CO)NC(=O)[C@@H](NC(=O)[C@@H](NC(=O)[C@H](CC(=O)O)NC(=O)[C@H](CCC(N)=O)NC(=O)[C@H](C)NC(=O)[C@H](CCSC)NC=O)[C@@H](C)CC)[C@@H](C)CC)[C@@H](C)O)[C@@H](C)CC)C(C)C)C(=O)N[C@H](C(=O)N[C@@H](CC(=O)O)C(=O)N[C@H](C(=O)N[C@H](C(=O)N[C@@H](CC(N)=O)C(=O)N[C@@H](CCCCN)C(=O)N[C@@H](Cc1ccccc1)C(=O)N[C@H](C(=O)N[C@@H](CCCCN)C(=O)N[C@@H](CCCCN)C(=O)O)[C@@H](C)O)C(C)C)[C@@H](C)O)[C@@H](C)CC`, the EC50 was 42.7 nM (FPR2 (Homo sapiens, UniProt P25090); agonist, cell-based).
`CC[C@H](C)[C@H](NC(=O)[C@H](Cc1ccccc1)NC(=O)[C@H](CC(=O)O)NC(=O)[C@H](CCCCN)NC(=O)[C@H](C)NC(=O)[C@H](CCCCN)NC(=O)[C@H](CC(N)=O)NC(=O)[C@H](CC(C)C)NC(=O)[C@H](Cc1c[nH]c2ccccc12)NC(=O)[C@H](CCC(=O)O)NC(=O)[C@H](CCCCN)NC(=O)[C@@H](NC(=O)CNC(=O)[C@H](C)N)[C@@H](C)O)C(=O)N[C@@H](CCCCN)C(=O)N[C@@H](CCC(=O)O)C(=O)N[C@@H](CCCCN)C(=O)NCC(=O)N1CCC[C@H]1C(=O)NCC(=O)N[C@@H](CCSC)C(=O)N[C@@H](CC(C)C)C(=O)N[C@@H](CO)C(=O)N[C@@H](C)C(=O)N[C@@H](C)C(=O)N[C@@H](C)C(=O)N[C@@H](CC(N)=O)C(=O)N[C@@H](C)C(=O)N[C@@H](C)C(=O)N[C@@H](CC(C)C)C(=O)N[C@@H](CC(N)=O)C(=O)O` gave a CC50 of over 250000 nM (HEK293 cells; resazurin; 24 h).
With `CC[C@H](C)[C@H](NC(=O)CNC(=O)[C@H](C)NC(=O)[C@@H]1CCCN1C(=O)CNC(=O)[C@H](C)NC(=O)[C@H](CCC(=O)O)NC(=O)[C@H](C)NC(=O)[C@H](CC(=O)O)NC(=O)[C@H](C)NC(=O)[C@H](CCC(=O)O)NC(=O)[C@H](C)NC(=O)[C@H](CCC(=O)O)NC(=O)[C@@H]1CCCN1C(=O)[C@H](CCC(=O)O)NC(=O)CNC(C)=O)C(=O)NCC(=O)N[C@@H](C)C(=O)N[C@H](C(=O)N[C@@H](CC(C)C)C(=O)N[C@@H](CCCCN)C(=O)N[C@H](C(=O)N[C@@H](CC(C)C)C(=O)N[C@H](C(=O)N[C@H](C(=O)NCC(=O)N[C@@H](CC(C)C)C(=O)N1CCC[C@H]1C(=O)N[C@@H](C)C(=O)N[C@@H](CC(C)C)C(=O)N[C@H](C(=O)N[C@@H](CO)C(=O)N[C@@H](Cc1c[nH]c2ccccc12)C(=O)N[C@H](C(=O)N[C@@H](CCCCN)C(=O)N[C@@H](CCCNC(=N)N)C(=O)N[C@@H](CCCCN)C(=O)N[C@@H](CCCNC(=N)N)C(=O)N[C@@H](CCC(N)=O)C(=O)N[C@@H](CCC(N)=O)C(N)=O)[C@@H](C)CC)[C@@H](C)CC)[C@@H](C)O)[C@@H](C)O)C(C)C)C(C)C` the HD50 was 72.2 ± 3.6 µmol/L (human erythrocytes, washed; 1 h, 37 °C, 2% v/v RBC suspension).
The LD50 of `CC[C@H](C)[C@H](NC(=O)[C@H](Cc1ccccc1)NC(=O)[C@H](CC(=O)O)NC(=O)[C@H](CCCCN)NC(=O)[C@H](C)NC(=O)[C@H](CCCCN)NC(=O)[C@H](CC(N)=O)NC(=O)[C@H](CC(C)C)NC(=O)[C@H](Cc1c[nH]c2ccccc12)NC(=O)[C@H](CCC(=O)O)NC(=O)[C@H](CCCCN)NC(=O)[C@@H](NC(=O)CNC(=O)[C@H](C)N)[C@@H](C)O)C(=O)N[C@@H](CCCCN)C(=O)N[C@@H](CCC(=O)O)C(=O)N[C@@H](CCCCN)C(=O)NCC(=O)N[C@@H](CC(C)C)C(=O)NCC(=O)N[C@@H](CCSC)C(=O)N[C@@H](CC(C)C)C(=O)N[C@@H](CCCNC(=N)N)C(=O)N[C@@H](C)C(=O)N[C@@H](C)C(=O)N[C@@H](C)C(=O)N[C@@H](CC(N)=O)C(=O)N[C@@H](C)C(=O)N[C@@H](C)C(=O)N[C@@H](CC(C)C)C(=O)N[C@@H](CC(N)=O)C(=O)O` is reported as 16.2 ± 4.8 nmol/g (Lucilia cuprina; thorax injection, 24 h).
For `CC(C)C[C@@H]1NC(=O)[C@H](CCCNC(=N)N)NC(=O)[C@@H]2CCCN2C(=O)[C@@H]2CSSC[C@H](NC(=O)CNC(=O)[C@@H]3CCCN3C(=O)[C@H](CCCCN)NC(=O)[C@H](CC(=O)O)NC(=O)[C@@H](NC(=O)CN)C(C)C)C(=O)N[C@@H](CCCNC(=N)N)C(=O)N[C@@H](Cc3ccc(O)cc3)C(=O)N[C@@H](CC(C)C)C(=O)N[C@@H](Cc3ccccc3)C(=O)NCC(=O)NCC(=O)N[C@H]3CSSC[C@H](NC(=O)CNC1=O)C(=O)N[C@@H](CCCCN)C(=O)NCC(=O)N[C@@H](CCCCN)C(=O)NCC(=O)N[C@@H](Cc1c[nH]cn1)C(=O)N[C@@H](CC(=O)O)C(=O)N[C@@H](Cc1ccc(O)cc1)C(=O)N[C@H](C(=O)N[C@@H](C)C(=O)N[C@@H](Cc1c[nH]c4ccccc14)C(=O)N[C@@H](CC(=O)O)C(=O)NCC(=O)N[C@H](C(=O)N[C@@H](Cc1ccccc1)C(=O)N[C@@H](CO)C(=O)N[C@@H](CC(=O)O)C(=O)O)[C@@H](C)O)CSSC[C@H](NC(=O)[C@H](CC(=O)O)NC(=O)[C@H](CC(=O)O)NC(=O)[C@H](CC(=O)O)NC(=O)[C@H](CO)NC(=O)[C@H](CCCCN)NC3=O)C(=O)N2`, “action potential number” read 7.1 ± 1.2 (mouse small DRG neurons; 1 µM, 1 s current ramp).

For quick reference, copied from above (other studies, line by line):
`CC[C@H](C)[C@H](NC(=O)[C@H](Cc1ccccc1)NC(=O)[C@H](CC(=O)O)NC(=O)[C@H](CCCCN)NC(=O)[C@H](C)NC(=O)[C@H](CCCCN)NC(=O)[C@H](CC(N)=O)NC(=O)[C@H](CC(C)C)NC(=O)[C@H](Cc1c[nH]c2ccccc12)NC(=O)[C@H](CCC(=O)O)NC(=O)[C@H](CCCCN)NC(=O)[C@@H](NC(=O)CNC(=O)[C@H](C)N)[C@@H](C)O)C(=O)N[C@@H](CCCCN)C(=O)N[C@@H](CCC(=O)O)C(=O)N[C@@H](CCCCN)C(=O)NCC(=O)N1CCC[C@H]1C(=O)NCC(=O)N[C@@H](CCSC)C(=O)N[C@@H](CC(C)C)C(=O)N[C@@H](CO)C(=O)N[C@@H](C)C(=O)N[C@@H](C)C(=O)N[C@@H](C)C(=O)N[C@@H](CC(N)=O)C(=O)N[C@@H](C)C(=O)N[C@@H](C)C(=O)N[C@@H](CC(C)C)C(=O)N[C@@H](CC(N)=O)C(=O)O` gave a CC50 of over 250000 nM (HEK293 cells; resazurin; 24 h).
With `CC[C@H](C)[C@H](NC(=O)CNC(=O)[C@H](C)NC(=O)[C@@H]1CCCN1C(=O)CNC(=O)[C@H](C)NC(=O)[C@H](CCC(=O)O)NC(=O)[C@H](C)NC(=O)[C@H](CC(=O)O)NC(=O)[C@H](C)NC(=O)[C@H](CCC(=O)O)NC(=O)[C@H](C)NC(=O)[C@H](CCC(=O)O)NC(=O)[C@@H]1CCCN1C(=O)[C@H](CCC(=O)O)NC(=O)CNC(C)=O)C(=O)NCC(=O)N[C@@H](C)C(=O)N[C@H](C(=O)N[C@@H](CC(C)C)C(=O)N[C@@H](CCCCN)C(=O)N[C@H](C(=O)N[C@@H](CC(C)C)C(=O)N[C@H](C(=O)N[C@H](C(=O)NCC(=O)N[C@@H](CC(C)C)C(=O)N1CCC[C@H]1C(=O)N[C@@H](C)C(=O)N[C@@H](CC(C)C)C(=O)N[C@H](C(=O)N[C@@H](CO)C(=O)N[C@@H](Cc1c[nH]c2ccccc12)C(=O)N[C@H](C(=O)N[C@@H](CCCCN)C(=O)N[C@@H](CCCNC(=N)N)C(=O)N[C@@H](CCCCN)C(=O)N[C@@H](CCCNC(=N)N)C(=O)N[C@@H](CCC(N)=O)C(=O)N[C@@H](CCC(N)=O)C(N)=O)[C@@H](C)CC)[C@@H](C)CC)[C@@H](C)O)[C@@H](C)O)C(C)C)C(C)C` the HD50 was 72.2 ± 3.6 µmol/L (human erythrocytes, washed; 1 h, 37 °C, 2% v/v RBC suspension).
